Published values pooled from the literature.
Parts stem from different laboratories: compare values within a part only. Values joined by “and” are separate records of one study, mostly repeats; a detail may differ.
Chain of UniProt P00519 (whole entry, unmodified, looked up): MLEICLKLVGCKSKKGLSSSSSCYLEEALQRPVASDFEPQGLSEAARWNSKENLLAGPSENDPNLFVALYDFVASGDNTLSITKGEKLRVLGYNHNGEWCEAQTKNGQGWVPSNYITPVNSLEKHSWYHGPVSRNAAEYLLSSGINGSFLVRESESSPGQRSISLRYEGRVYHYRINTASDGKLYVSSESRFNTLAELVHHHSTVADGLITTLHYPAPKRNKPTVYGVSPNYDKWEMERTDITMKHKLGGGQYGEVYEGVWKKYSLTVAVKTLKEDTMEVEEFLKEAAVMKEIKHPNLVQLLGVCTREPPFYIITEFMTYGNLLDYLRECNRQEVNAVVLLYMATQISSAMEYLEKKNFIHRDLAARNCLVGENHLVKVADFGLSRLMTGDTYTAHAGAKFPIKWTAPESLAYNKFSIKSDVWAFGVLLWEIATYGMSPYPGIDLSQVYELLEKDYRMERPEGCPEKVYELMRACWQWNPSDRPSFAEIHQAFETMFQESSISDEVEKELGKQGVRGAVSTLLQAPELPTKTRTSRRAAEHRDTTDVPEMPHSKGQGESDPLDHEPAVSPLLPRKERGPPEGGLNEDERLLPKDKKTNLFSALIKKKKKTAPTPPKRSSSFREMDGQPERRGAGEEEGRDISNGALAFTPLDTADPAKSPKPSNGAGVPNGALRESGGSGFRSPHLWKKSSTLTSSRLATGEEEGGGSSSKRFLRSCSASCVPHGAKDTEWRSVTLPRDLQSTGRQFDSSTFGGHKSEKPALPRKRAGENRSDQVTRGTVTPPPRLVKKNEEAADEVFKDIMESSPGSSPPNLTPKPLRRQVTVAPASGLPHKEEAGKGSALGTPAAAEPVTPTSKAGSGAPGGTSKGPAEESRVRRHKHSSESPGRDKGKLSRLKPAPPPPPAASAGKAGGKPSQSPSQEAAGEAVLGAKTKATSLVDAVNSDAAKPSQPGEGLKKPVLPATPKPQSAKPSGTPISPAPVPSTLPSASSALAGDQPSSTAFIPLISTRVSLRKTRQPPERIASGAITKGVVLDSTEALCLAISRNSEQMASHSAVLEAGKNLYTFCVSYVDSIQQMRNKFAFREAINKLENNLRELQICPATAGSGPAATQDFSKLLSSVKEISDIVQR
Chain of UniProt Q9UIK4 (whole entry, looked up): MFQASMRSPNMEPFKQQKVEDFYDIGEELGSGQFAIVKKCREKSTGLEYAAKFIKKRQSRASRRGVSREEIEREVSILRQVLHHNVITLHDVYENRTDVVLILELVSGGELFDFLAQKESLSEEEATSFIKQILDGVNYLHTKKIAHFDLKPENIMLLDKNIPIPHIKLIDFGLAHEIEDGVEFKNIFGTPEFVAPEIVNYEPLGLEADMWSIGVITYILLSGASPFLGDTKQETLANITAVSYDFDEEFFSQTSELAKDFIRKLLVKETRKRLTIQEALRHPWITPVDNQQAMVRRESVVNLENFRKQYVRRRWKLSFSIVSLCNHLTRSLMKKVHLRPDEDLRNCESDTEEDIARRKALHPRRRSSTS
Chain of UniProt Q00536 (whole entry, looked up): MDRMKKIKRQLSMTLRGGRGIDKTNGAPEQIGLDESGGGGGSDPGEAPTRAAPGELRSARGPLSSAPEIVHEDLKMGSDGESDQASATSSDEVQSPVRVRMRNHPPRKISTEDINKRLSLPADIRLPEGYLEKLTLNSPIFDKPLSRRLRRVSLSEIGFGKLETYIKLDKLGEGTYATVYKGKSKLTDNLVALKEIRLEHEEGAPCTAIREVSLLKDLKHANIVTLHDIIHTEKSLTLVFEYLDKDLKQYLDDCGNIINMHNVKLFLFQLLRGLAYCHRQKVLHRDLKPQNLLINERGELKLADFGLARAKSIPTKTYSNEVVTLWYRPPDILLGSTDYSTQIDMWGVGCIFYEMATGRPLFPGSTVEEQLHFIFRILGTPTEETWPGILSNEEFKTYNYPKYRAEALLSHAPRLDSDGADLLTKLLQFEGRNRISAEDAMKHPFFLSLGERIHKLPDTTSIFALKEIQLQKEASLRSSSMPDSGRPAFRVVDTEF
Chain of UniProt Q9UKE5 (whole entry, looked up): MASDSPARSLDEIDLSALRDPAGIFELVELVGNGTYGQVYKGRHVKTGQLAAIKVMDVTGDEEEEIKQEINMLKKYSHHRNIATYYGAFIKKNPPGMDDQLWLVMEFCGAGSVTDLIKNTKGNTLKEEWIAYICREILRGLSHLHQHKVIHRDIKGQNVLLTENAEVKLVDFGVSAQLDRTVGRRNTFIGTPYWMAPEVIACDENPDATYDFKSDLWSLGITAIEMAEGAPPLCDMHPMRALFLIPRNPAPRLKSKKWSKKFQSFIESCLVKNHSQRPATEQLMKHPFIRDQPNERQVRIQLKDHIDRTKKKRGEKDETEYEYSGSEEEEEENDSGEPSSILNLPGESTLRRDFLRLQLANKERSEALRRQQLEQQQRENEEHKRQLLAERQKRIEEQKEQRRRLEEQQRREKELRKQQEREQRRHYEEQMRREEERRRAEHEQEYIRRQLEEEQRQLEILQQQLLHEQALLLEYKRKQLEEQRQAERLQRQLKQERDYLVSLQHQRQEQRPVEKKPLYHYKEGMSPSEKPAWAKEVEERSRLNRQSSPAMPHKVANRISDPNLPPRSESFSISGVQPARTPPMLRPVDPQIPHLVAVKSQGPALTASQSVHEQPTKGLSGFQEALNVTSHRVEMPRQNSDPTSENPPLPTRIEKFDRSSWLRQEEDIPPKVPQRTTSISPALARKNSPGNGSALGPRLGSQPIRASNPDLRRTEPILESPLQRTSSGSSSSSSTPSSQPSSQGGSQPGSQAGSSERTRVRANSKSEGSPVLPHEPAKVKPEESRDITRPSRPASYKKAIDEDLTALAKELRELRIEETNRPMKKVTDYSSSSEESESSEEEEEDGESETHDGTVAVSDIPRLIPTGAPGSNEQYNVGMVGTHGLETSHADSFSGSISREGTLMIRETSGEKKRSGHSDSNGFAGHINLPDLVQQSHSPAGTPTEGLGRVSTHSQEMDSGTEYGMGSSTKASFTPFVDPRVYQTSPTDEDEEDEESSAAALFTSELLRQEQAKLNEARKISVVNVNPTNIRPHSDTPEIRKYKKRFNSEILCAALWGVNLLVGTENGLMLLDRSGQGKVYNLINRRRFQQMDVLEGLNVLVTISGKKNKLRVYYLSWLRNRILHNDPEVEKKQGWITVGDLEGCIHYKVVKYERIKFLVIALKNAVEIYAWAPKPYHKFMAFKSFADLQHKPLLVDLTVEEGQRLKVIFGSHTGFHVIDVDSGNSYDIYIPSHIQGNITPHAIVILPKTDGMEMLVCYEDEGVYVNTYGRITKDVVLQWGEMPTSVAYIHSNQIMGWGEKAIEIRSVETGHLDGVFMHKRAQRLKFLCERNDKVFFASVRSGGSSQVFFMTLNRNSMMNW
Chain of UniProt Q8NG66 (whole entry, looked up): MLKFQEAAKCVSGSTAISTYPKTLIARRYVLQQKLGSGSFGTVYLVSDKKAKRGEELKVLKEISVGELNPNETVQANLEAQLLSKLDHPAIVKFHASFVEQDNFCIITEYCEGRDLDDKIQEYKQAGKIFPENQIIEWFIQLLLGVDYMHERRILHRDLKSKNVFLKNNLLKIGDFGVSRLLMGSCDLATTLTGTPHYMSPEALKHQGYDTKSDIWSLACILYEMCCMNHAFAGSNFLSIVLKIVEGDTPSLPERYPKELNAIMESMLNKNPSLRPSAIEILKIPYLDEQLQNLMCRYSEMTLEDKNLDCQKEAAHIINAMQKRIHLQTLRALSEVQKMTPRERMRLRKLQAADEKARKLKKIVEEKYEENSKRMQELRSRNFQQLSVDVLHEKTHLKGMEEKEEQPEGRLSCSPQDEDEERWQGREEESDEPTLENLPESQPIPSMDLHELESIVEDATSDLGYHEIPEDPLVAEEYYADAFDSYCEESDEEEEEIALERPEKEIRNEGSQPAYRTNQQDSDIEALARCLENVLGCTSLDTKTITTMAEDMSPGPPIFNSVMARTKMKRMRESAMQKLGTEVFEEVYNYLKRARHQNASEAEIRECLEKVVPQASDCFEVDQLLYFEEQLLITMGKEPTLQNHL

Study 1
Structure (SMILES): CC(C)n1cnc(-c2ccc(F)cc2)c1-c1ncc(C(=O)Nc2ccc(N3CCN(C)CC3)cc2)[nH]1
Technique: phase 2a trial
Species: idiopathic pulmonary fibrosis patients
setting | patients with headache [%]
30 mg once daily, grade 5 emergent event | 0
60 mg once daily, grade 2 emergent event | 0
all arms pooled, grade 4 emergent event | 0
all arms pooled, grade 3 emergent event | 0

Study 2
Structure (SMILES): O=C(NCc1ncc(C(F)(F)F)cc1Cl)c1ccc2c(c1)C1(CCS(=O)(=O)CC1)[C@H](C1CC1)N2S(=O)(=O)c1ccc(F)cc1
Technique: competition with immobilised ligand
Tested at: 1 µM
target | assay | remaining binding [%]
KIT (Homo sapiens, UniProt P10721, L576P) | cell-free assay | 100
NEK11 (Homo sapiens, UniProt Q8NG66) | cell-free assay | 100
PIP4K2B (Homo sapiens, UniProt P78356) | cell-free assay | 89
MAST1 (Homo sapiens, UniProt Q9Y2H9) | cell-free assay | 54
Tyrosine-protein kinase ABL1, phosphorylated (ABL1, Homo sapiens, UniProt P00519, F317L) | cell-free assay | 88
PDPK1 (Homo sapiens, UniProt O15530) | cell-free assay | 91
DAPK2 (Homo sapiens, UniProt Q9UIK4) | cell-free assay | 99
INSRR (Homo sapiens, UniProt P14616) | cell-free assay | 100
EGFR (Homo sapiens, UniProt P00533) | cell-free assay | 95
STK32C (Homo sapiens, UniProt Q86UX6) | cell-free assay | 100
CDK16 (Homo sapiens, UniProt Q00536) | cell-free assay | 100
Tyrosine-protein kinase ABL1, non-phosphorylated (ABL1, Homo sapiens, UniProt P00519, F317I) | binding | 83
TXK (Homo sapiens, UniProt P42681) | binding | 100
TNIK (Homo sapiens, UniProt Q9UKE5) | cell-free assay | 100

Study 3
Target: Ephrin type-B receptor 3 (EPHB3, Homo sapiens, UniProt P54753)
Chain of UniProt P54753 (whole entry, looked up): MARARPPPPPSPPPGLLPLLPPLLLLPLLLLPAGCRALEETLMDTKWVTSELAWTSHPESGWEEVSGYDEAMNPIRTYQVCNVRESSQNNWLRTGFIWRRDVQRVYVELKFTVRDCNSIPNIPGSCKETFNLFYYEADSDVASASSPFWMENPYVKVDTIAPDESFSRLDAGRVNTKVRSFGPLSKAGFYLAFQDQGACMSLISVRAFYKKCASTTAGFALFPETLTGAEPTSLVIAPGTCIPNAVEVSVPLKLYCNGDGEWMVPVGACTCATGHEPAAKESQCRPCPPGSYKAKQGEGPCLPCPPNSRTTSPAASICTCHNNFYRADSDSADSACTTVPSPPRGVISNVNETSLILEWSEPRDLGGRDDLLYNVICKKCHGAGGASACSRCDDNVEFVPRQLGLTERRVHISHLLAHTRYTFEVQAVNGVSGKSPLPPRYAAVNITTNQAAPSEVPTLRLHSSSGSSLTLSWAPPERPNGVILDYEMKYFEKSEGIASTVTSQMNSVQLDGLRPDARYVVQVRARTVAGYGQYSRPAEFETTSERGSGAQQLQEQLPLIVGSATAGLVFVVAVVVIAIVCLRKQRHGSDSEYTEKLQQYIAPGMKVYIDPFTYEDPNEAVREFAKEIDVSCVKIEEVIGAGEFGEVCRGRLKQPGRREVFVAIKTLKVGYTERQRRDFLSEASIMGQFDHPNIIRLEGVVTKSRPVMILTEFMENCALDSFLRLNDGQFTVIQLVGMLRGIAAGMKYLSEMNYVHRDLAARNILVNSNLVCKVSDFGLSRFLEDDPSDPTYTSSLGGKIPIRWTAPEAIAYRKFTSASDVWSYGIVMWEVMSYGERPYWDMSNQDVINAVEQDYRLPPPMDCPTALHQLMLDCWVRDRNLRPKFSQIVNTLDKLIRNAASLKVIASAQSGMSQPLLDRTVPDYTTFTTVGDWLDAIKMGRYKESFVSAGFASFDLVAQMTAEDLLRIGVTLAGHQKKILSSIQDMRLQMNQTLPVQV
Observed: enzyme activity
Action: inhibitor
Tested at: 0.5 µM
Reference: control
SMILES | remaining activity [%]
Nc1cccc(-c2cc3c(Oc4cccc(O)c4)ncnc3[nH]2)c1 | 78.8
O=C1c2ccccc2-c2n[nH]c3cccc1c23 | 92.5
N#Cc1c(NC(=O)c2cccc3ccccc23)sc2c1CCCC2 | 95.9
Cc1cc2ncc(-c3ccccc3)nc2cc1C | 98.4
c1ccc(-c2[nH]ncc2-c2ccnc3ccccc23)nc1 | 97.1
O=C(Nc1cccc(Nc2nccc(Nc3cccc(C(F)(F)F)c3)n2)c1)C1CC1 | 100
c1ccc(-c2cnc(Nc3ccc(OCCN4CCCC4)cc3)s2)cc1 | 93.3
O=C1C(Cl)=C(N2C(=O)CCC2=O)C(=O)c2ccccc21 | 97

Study 4
SMILES: C=C(F)C(=O)N1CCN(c2nc(OC[C@@H]3CCCN3C)nc3c2CCN(c2cccc4cccc(Cl)c24)C3)C[C@@H]1CC#N
Target: GTPase HRas (HRAS, Homo sapiens, UniProt P01112)
Observed: binding
Action: competitor
Technique: NanoBRET
Cells: HEK293
setting | normalized BRET
741 nM | 107% and 104%
20 µM | 148% and 189%
153 pM | 92.1%

A few entries again (study 2):
target | assay | remaining binding [%]
CDK16 (Homo sapiens, UniProt Q00536) | cell-free assay | 100
